Measurements collected from several papers.
Each line is one published result; not all experiments were run side by side. “And” joins repeats or separate records; there may be more than shown. ± marks the error that the study gave.
SUA7 full length assumed: SUA7 full length assumed (Saccharomyces cerevisiae, UniProt P29055)
Chain of UniProt P29055 (whole entry, looked up): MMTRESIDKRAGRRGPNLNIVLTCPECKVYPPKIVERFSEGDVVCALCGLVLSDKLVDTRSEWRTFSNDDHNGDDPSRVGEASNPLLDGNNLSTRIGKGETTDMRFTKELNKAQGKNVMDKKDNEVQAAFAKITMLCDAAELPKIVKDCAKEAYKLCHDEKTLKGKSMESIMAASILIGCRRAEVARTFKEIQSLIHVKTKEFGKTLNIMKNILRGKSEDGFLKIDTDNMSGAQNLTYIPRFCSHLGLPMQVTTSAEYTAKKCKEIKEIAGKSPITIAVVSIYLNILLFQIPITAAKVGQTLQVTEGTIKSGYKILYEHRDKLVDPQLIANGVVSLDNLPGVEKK
U2AF2: U2AF2 148-342 (Homo sapiens, UniProt P26368)
Chain of UniProt P26368 (whole entry, looked up): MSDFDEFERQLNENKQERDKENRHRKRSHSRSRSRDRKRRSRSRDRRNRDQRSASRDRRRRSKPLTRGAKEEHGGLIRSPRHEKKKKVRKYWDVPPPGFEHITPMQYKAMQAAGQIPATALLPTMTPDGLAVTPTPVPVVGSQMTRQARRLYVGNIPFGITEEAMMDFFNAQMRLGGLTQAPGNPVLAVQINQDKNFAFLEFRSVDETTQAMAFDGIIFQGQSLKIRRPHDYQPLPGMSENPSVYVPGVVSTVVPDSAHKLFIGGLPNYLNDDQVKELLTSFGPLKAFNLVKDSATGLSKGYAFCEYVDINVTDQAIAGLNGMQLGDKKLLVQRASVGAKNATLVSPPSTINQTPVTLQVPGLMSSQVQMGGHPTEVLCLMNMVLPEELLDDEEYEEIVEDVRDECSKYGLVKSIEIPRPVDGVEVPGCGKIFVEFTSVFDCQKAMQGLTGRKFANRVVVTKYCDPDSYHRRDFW
B1: human sideroflexin-3; sequence looked up; chain MGELPLDINIQEPRWDQSTFLGRARHFFTVTDPRNLLLSGAQLEASRNIVQNYRAGVVTPGITEDQLWRAKYVYDSAFHPDTGEKVVLIGRMSAQVPMNMTITGCMLTFYRKTPTVVFWQWVNQSFNAIVNYSNRSGDTPITVRQLGTAYVSATTGAVATALGLKSLTKHLPPLVGRFVPFAAVAAANCINIPLMRQRELQVGIPVADEAGQRLGYSVTAAKQGIFQVVISRICMAIPAMAIPPLIMDTLEKKDFLKRRPWLGAPLQVGLVGFCLVFATPLCCALFPQKSSIHISNLEPELRAQIHEQNPSVEVVYYNKGL
B2: human SND1; sequence looked up; chain ASSAQSGGSSGGPAVPTVQRGIIKMVLSGCAIIVRGQPRGGPPPERQINLSNIRAGNLARRAAATQPDAKDTPDEPWAFPAREFLRKKLIGKEVCFTIENKTPQGREYGMIYLGKDTNGENIAESLVAEGLATRREGMRANNPEQNRLSECEEQAKAAKKGMWSEGNGSHTIRDLKYTIENPRHFVDSHHQKPVNAIIEHVRDGSVVRALLLPDYYLVTVMLSGIKCPTFRREADGSETPEPFAAEAKFFTESRLLQRDVQIILESCHNQNILGTILHPNGNITELLLKEGFARCVDWSIAVYTRGAEKLRAAERFAKERRLRIWRDYVAPTANLDQKDKQFVAKVMQVLNADAIVVKLNSGDYKTIHLSSIRPPRLEGENTQDKNKKLRPLYDIPYMFEAREFLRKKLIGKKVNVTVDYIRPASPATETVPAFSERTCATVTIGGINIAEALVSKGLATVIRYRQDDDQRSSHYDELLAAEARAIKNGKGLHSKKEVPIHRVADISGDTQKAKQFLPFLQRAGRSEAVVEYVFSGSRLKLYLPKETCLITFLLAGIECPRGARNLPGLVQEGEPFSEEATLFTKELVLQREVEVEVESMDKAGNFIGWLHIDGANLSVLLVEHALSKVHFTAERSSYYKSLLSAEEAAKQKKEKVWAHYEEQPVEEVMPVLEEKERSASYKPVFVTEITDDLHFYVQDVETGTQLEKLMENMRNDIASHPPVEGSYAPRRGEFCIAKFVDGEWYRARVEKVESPAKIHVFYIDYGNREVLPSTRLGTLSPAFSTRVLPAQATEYAFAFIQVPQDDDARTDAVDSVVRDIQNTQCLLNVEHLSAGCPHVTLQFADSKGDVGLGLVKEGLVMVEVRKEKQFQKVITEYLNAQESAKSARLNLWRYGDFRADDADEFGYSR
B3: protein disulfide-isomerase A6, human; sequence looked up; chain LYSSSDDVIELTPSNFNREVIQSDSLWLVEFYAPWCGHCQRLTPEWKKAATALKDVVKVGAVDADKHHSLGGQYGVQGFPTIKIFGSNKNRPEDYQGGRTGEAIVDAALSALRQLVKDRLGGRSGGYSSGKQGRSDSSSKKDVIELTDDSFDKNVLDSEDVWMVEFYAPWCGHCKNLEPEWAAAASEVKEQTKGKVKLAAVDATVNQVLASRYGIRGFPTIKIFQKGESPVDYDGGRTRSDIVSRALDLFSDNAPPPELLEIINEDIAKRTCEEHQLCVVAVLPHILDTGAAGRNSYLEVLLKLADKYKKKMWGWLWTEAGAQSELETALGIGGFGYPAMAAINARKMKFALLKGSFSEQGINEFLRELSFGRGSTAPVGGGAFPTIVEREPWDGRDGELPVEDDIDLSDVELDDLGKDEL
B4: CSDE1, human; sequence looked up; chain MSFDPNLLHNNGHNGYPNGTSAALRETGVIEKLLTSYGFIQCSERQARLFFHCSQYNGNLQDLKVGDDVEFEVSSDRRTGKPIAVKLVKIKQEILPEERMNGQVVCAVPHNLESKSPAAPGQSPTGSVCYERNGEVFYLTYTPEDVEGNVQLETGDKINFVIDNNKHTGAVSARNIMLLKKKQARCQGVVCAMKEAFGFIERGDVVKEIFFHYSEFKGDLETLQPGDDVEFTIKDRNGKEVATDVRLLPQGTVIFEDISIEHFEGTVTKVIPKVPSKNQNDPLPGRIKVDFVIPKELPFGDKDTKSKVTLLEGDHVRFNISTDRRDKLERATNIEVLSNTFQFTNEAREMGVIAAMRDGFGFIKCVDRDVRMFFHFSEILDGNQLHIADEVEFTVVPDMLSAQRNHAIRIKKLPKGTVSFHSHSDHRFLGTVEKEATFSNPKTTSPNKGKEKEAEDGIIAYDDCGVKLTIAFQAKDVEGSTSPQIGDKVEFSISDKQRPGQQVATCVRLLGRNSNSKRLLGYVATLKDNFGFIETANHDKEIFFHYSEFSGDVDSLELGDMVEYSLSKGKGNKVSAEKVNKTHSVNGITEEADPTIYSGKVIRPLRSVDPTQTEYQGMIEIVEEGDMKGEVYPFGIVGMANKGDCLQKGESVKFQLCVLGQNAQTMAYNITPLRRATVECVKDQFGFINYEVGDSKKLFFHVKEVQDGIELQAGDEVEFSVILNQRTGKCSACNVWRVCEGPKAVAAPRPDRLVNRLKNITLDDASAPRLMVLRQPRGPDNSMGFGAERKIRQAGVID
B5: Aralar1, human; sequence looked up; chain AVKVQTTKRGDPHELRNIFLQYASTEVDGERYMTPEDFVQRYLGLYNDPNSNPKIVQLLAGVADQTKDGLISYQEFLAFESVLCAPDSMFIVAFQLFDKSGNGEVTFENVKEIFGQTIIHHHIPFNWDCEFIRLHFGHNRKKHLNYTEFTQFLQELQLEHARQAFALKDKSKSGMISGLDFSDIMVTIRSHMLTPFVEENLVSAAGGSISHQVSFSYFNAFNSLLNNMELVRKIYSTLAGTRKDVEVTKEEFAQSAIRYGQVTPLEIDILYQLADLYNASGRLTLADIERIAPLAEGALPYNLAELQRQQSPGLGRPIWLQIAESAYRFTLGSVAGAVGATAVYPIDLVKTRMQNQRGSGSVVGELMYKNSFDCFKKVLRYEGFFGLYRGLIPQLIGVAPEKAIKLTVNDFVRDKFTRRDGSVPLPAEVLAGGCAGGSQVIFTNPLEIVKIRLQVAGEITTGPRVSALNVLRDLGIFGLYKGAKACFLRDIPFSAIYFPVYAHCKLLLADENGHVGGLNLLAAGAMAGVPAASLVTPADVIKTRLQVAARAGQTTYSGVIDCFRKILREEGPSAFWKGTAARVFRSSPQFGVTLVTYELLQRWFYIDFGGLKPAGSEPTPKSRIADLPPANPDHIGGYRLATATFAGIENKFGLYLPKFKSPSVAVVQPKAAVAATQ
B6: PPM1A (human); sequence looked up; chain GAFLDKPKMEKHNAQGQGNGLRYGLSSMQGWRVEMEDAHTAVIGLPSGLESWSFFAVYDGHAGSQVAKYCCEHLLDHITNNQDFKGSAGAPSVENVKNGIRTGFLEIDEHMRVMSEKKHGADRSGSTAVGVLISPQHTYFINCGDSRGLLCRNRKVHFFTQDHKPSNPLEKERIQNAGGSVMIQRVNGSLAVSRALGDFDYKCVHGKGPTEQLVSPEPEVHDIERSEEDDQFIILACDGIWDVMGNEELCDFVRSRLEVTDDLEKVCNEVVDTCLYKGSRDNMSVILICFPNAPKVSPEAVKKEAELDKYLECRVEEIIKKQGEGVPDLVHVMRTLASENIPSLPPGGELASKRNVIEAVYNRLNPYKNDDTDSTSTDDMW
Chain of UniProt Q64663 (whole entry, unmodified, looked up): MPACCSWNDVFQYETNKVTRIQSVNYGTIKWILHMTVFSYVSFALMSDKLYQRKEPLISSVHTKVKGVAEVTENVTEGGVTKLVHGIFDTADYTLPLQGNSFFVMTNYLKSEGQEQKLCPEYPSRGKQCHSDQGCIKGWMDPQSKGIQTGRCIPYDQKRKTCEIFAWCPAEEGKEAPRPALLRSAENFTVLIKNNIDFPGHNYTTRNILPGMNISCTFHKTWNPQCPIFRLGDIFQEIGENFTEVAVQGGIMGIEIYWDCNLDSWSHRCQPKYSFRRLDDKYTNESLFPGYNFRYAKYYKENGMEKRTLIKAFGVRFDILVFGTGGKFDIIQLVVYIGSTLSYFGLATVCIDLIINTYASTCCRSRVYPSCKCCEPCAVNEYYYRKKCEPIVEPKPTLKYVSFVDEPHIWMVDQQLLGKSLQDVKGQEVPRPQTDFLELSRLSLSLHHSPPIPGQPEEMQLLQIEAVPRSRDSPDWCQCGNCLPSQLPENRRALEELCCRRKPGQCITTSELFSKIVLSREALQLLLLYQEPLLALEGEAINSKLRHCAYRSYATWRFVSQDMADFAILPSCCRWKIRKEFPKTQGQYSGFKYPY

GSGAGKETEC  binding intensity (construct, MBP fusion, human SCRIB, PDZ 3-4; automated holdup; peptide, purified PDZ protein; concentration not given, unit not given; reference: biotin control resin, higher = stronger binding): 0.188
CCCCCGCGCCTACGCAAGTTTTCCGGATCCGTCCATCAAGTCAATCGGTCC (dsDNA; 5'-amino-C6 primer)  Kd (SUA7 full length assumed; array; double-stranded DNA, one strand shown; TFIIB alone): 0.00351 ± 0.00058 µM
B1 (human sideroflexin-3)  log2 fold change (CYB5R4 knockout human cells; PP4 interaction, 3xFLAG-PP4C IP-MS; concentration not given; reference: CYB5R4 KO over parental): 2.38
AGUGGAGAACUUUUCUGCCUCUG (ssRNA)  Kd (U2AF2; MST; RNA): 29.7 ± 6.55 µM
GSGAGSETVV  binding intensity (construct, MBP fusion, human SCRIB, PDZ 3-4; automated holdup; peptide, crude extract; concentration not given, uncorrected, unit not given; reference: biotin control resin, higher = stronger binding): 0.082
epoetin alfa  mRNA level (UT7/EPO; RT-qPCR, measured: THBS1; concentration not given, 90 min, normalized to HPRT1; reference: vehicle): 3 fold
Polymyxin B  membrane depolarisation (Staphylococcus aureus; DiSC3(5) fluorescence; concentration not given, 72 min; higher = more depolarisation): 459 a.u. and 528 a.u. and 604 a.u.
B2 (human SND1)  log2 fold change (CYB5R4 knockout human cells; PP4 interaction, 3xFLAG-PP4C IP-MS; concentration not given; reference: CYB5R4 KO over parental): -0.81
VVVGAAGVGK  remaining protein (HLA-A*11:01 peptide-β2M single-chain trimer; western blot, measured: pMHC-I; peptide, 293T cells; 12 h, unit not given, together with: 100 µg/mL cycloheximide; reference: time zero): 0.833 and 0.83 and 0.834
B3  log2 fold change (CYB5R4 knockout human cells; PP4 interaction, 3xFLAG-PP4C IP-MS; concentration not given; reference: CYB5R4 KO over parental): -0.47
colistin  MIC (Enterobacter cloacae; broth microdilution; clinical isolate RKI-No_33/16): ≤ 0.5 µg/mL
milbemycin oxime  OD600 (Saccharomyces cerevisiae; cell growth; Pdr5 deleted, Cdr1 overexpressed; 2^-2.966 µg/mL, together with: fluconazole 10 µg/mL): 0.025 and 0.026
B4 (CSDE1, human)  log2 fold change (CYB5R4 knockout human cells; PP4 interaction, 3xFLAG-PP4C IP-MS; concentration not given; reference: CYB5R4 KO over parental): -2.52
human ME2 T60S  Hill coefficient (enzyme activity, NADH absorbance; without fumarate, together with: L-malate varied): 1.68 ± 0.08
GAAGCGAGTACGGAGGTACCAGCTGGTCTCCGTAGTCAAGTCAATCGGTCC (dsDNA; 5'-amino-C6 primer)  Kd (SUA7 full length assumed; array; double-stranded DNA, one strand shown; TFIIB alone): 0.0021 ± 0.00043 µM
human ME2 I58F  Hill coefficient (enzyme activity, NADH absorbance; without fumarate, together with: L-malate varied): 2.24 ± 0.19
BzATP  normalized current (P2X purinoceptor 7 (P2rx7, Rattus norvegicus, UniProt Q64663, R125A); ion current, agonist, two-electrode voltage clamp; Xenopus oocytes; 1.235 µM): 0.0843 and 0.154 and 0.122
GSGAGIESNV  normalised SPR binding response (construct, MBP fusion, human SCRIB, PDZ 3-4; surface plasmon resonance; peptide; concentration not given; higher = stronger binding): 20.7 normalised RU
GGGUGGAUUUCUCAUGAA (ssRNA)  Kd (U2AF2; MST; RNA): 21.7 ± 2 µM
cotadutide  metabolite level (metabolomics, measured: hepatic threonine; ob/ob mice on AMLN diet, NASH model, liver; dose not given): 1.05 ± 0.04 scaled intensity
FGB (Homo sapiens, UniProt P02675)  cross-linked residues (CCDC30 (Homo sapiens, UniProt Q5VVM6); cross-linking MS; together with: DSSO): K353 to K346
difelikefalin  PGIC no change (Japanese haemodialysis patients with pruritus; intravenous, 1.0 µg/kg, 8 weeks): 8.3%
B5 (Aralar1, human)  log2 fold change (PP6C (human); co-immunoprecipitation, IP-MS; CYB5R4 knockout cells; concentration not given; reference: CYB5R4 knockout over parental): -0.0363
Peginesatide  phosphorylation level (UT7/EPO; tyrosine phosphorylation, LC-MS/MS phosphoproteomics, GluC, measured: GRB2 tyrosine 52; 10 nM, 15 min, together with: 10 U/mL EPO; reference: vehicle): 4.9 fold
GSGAGSETSV  binding intensity (construct, MBP fusion, human SCRIB, PDZ 3-4; automated holdup; peptide, purified PDZ protein; concentration not given, unit not given; reference: biotin control resin, higher = stronger binding): 0.299
B6 (PPM1A)  log2 fold change (PP6C (human); co-immunoprecipitation, IP-MS; CYB5R4 knockout cells; concentration not given; reference: CYB5R4 knockout over parental): -0.58
FGA (Homo sapiens, UniProt P02671)  cross-linked residues (TTC27 (Homo sapiens, UniProt Q6P3X3); cross-linking MS; together with: DSSO): K100 to K484

Some of these lines once more:
CCCCCGCGCCTACGCAAGTTTTCCGGATCCGTCCATCAAGTCAATCGGTCC (dsDNA; 5'-amino-C6 primer)  Kd (SUA7 full length assumed; array; double-stranded DNA, one strand shown; TFIIB alone): 0.00351 ± 0.00058 µM
B1 (human sideroflexin-3)  log2 fold change (CYB5R4 knockout human cells; PP4 interaction, 3xFLAG-PP4C IP-MS; concentration not given; reference: CYB5R4 KO over parental): 2.38
